Measured values collected from several papers.
Protocols differ between the studies behind these lines. “And” joins repeats or separate records; there may be more than shown. ± gives the spread as reported.
rep R3428I 3C-like proteinase: Replicase polyprotein 1ab, 3C-like proteinase (rep, Severe acute respiratory syndrome-related coronavirus, UniProt P0C6X7, R3428I)
Ricin A chain: Ricin, A chain (Ricinus communis, UniProt P02879)
Shiga-like toxin 2 subunit A A1 fragment: Shiga-like toxin 2 subunit A, A1 fragment (UniProt P09385)
Replicase polyprotein 1a R3428I 3C-like proteinase: Replicase polyprotein 1a, 3C-like proteinase (Severe acute respiratory syndrome-related coronavirus, UniProt P0C6U8, R3428I)
Botulinum neurotoxin type A light chain: Botulinum neurotoxin type A, light chain (Clostridium botulinum, UniProt P0DPI0)

Sequences of proteins named here, by UniProt entry; tags and fusion partners are left off. Residues count along the entry.
UniProt P04757, 26-499 limits assumed: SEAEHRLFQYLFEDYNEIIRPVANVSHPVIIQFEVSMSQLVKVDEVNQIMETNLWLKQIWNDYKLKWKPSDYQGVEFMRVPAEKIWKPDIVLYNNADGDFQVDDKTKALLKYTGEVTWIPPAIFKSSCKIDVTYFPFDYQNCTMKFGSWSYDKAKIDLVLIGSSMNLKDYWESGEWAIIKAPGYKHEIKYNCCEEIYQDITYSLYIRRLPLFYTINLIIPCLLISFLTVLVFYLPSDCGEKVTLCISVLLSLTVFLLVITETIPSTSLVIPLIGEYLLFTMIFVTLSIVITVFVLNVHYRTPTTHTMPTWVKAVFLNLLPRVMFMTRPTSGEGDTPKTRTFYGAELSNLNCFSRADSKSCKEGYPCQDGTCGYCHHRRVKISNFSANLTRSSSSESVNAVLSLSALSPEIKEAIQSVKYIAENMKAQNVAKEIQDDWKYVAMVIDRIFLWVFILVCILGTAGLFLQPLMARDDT
UniProt P04757, whole entry, looked up: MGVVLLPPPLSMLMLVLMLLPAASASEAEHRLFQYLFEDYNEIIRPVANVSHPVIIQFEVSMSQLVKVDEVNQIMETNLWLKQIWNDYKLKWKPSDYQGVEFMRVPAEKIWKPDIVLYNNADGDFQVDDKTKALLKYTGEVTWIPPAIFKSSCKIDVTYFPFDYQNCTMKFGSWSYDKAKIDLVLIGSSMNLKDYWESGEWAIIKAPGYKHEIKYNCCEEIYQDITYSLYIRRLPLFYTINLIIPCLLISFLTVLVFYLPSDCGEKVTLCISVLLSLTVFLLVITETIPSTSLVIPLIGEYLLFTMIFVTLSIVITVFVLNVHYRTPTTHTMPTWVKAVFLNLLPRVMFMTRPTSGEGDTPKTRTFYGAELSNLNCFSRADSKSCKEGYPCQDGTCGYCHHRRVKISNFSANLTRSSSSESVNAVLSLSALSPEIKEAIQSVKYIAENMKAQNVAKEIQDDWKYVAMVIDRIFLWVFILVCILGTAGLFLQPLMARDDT
UniProt P12390, 25-500 limits assumed: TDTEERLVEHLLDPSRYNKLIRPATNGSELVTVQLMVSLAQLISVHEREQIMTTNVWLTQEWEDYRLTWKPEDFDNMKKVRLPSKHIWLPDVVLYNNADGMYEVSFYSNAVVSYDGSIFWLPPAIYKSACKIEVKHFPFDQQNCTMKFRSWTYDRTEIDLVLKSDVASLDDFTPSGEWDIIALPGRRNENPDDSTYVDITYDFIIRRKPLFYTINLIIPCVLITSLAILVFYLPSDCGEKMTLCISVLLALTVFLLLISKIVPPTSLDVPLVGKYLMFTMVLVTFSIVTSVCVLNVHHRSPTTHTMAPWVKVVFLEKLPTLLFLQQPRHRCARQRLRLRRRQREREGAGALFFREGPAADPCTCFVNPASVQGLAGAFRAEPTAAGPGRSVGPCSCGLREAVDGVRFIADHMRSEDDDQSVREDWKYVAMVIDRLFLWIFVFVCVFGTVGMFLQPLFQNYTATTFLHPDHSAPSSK
UniProt P12390, whole entry, looked up: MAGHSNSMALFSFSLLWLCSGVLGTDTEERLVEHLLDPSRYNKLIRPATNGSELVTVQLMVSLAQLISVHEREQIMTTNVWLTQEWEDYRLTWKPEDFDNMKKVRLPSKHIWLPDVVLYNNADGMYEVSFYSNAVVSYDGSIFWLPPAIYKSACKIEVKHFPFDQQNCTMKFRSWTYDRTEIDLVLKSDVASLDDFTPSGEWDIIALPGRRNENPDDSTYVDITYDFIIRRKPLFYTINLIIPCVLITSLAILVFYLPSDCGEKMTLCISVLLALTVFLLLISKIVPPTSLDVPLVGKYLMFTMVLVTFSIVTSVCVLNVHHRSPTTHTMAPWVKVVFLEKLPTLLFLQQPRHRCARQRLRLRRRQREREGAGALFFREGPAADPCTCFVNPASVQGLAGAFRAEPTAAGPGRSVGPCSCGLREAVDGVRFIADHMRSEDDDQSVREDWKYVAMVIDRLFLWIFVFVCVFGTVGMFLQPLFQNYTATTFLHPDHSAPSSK
UniProt P35372, whole entry: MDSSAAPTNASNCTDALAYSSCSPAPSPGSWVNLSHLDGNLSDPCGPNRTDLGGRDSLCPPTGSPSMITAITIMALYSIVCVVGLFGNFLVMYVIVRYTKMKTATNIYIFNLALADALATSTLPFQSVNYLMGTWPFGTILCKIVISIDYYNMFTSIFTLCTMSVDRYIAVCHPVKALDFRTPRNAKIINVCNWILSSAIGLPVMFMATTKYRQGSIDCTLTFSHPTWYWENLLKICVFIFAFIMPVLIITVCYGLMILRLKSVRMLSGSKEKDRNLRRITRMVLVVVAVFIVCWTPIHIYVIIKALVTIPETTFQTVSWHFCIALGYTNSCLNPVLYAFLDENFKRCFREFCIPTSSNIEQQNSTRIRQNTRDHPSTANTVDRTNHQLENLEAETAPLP
UniProt P12392, 21-495 limits assumed: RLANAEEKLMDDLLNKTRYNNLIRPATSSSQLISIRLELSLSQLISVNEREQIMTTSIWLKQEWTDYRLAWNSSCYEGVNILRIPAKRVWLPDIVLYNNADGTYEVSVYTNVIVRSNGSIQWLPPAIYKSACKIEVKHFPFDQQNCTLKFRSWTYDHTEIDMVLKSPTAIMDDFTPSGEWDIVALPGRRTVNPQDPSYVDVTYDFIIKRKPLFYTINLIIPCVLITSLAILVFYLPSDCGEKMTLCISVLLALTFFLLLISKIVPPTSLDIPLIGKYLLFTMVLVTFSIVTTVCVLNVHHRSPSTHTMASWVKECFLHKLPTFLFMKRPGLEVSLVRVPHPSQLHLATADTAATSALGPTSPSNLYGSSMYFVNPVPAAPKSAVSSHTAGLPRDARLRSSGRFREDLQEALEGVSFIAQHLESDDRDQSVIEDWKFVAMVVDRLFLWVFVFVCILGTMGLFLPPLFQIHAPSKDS
UniProt P32300, whole entry: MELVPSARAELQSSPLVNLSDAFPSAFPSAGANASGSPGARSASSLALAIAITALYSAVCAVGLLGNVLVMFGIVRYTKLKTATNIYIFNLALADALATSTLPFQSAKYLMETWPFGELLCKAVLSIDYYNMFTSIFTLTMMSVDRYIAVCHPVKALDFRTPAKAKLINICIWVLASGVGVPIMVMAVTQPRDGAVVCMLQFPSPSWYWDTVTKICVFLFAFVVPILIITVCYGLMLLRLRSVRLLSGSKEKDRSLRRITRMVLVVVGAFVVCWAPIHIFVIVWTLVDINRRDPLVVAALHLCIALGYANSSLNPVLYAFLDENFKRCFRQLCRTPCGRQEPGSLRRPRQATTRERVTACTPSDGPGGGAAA
UniProt P22303, 32-614 limits assumed: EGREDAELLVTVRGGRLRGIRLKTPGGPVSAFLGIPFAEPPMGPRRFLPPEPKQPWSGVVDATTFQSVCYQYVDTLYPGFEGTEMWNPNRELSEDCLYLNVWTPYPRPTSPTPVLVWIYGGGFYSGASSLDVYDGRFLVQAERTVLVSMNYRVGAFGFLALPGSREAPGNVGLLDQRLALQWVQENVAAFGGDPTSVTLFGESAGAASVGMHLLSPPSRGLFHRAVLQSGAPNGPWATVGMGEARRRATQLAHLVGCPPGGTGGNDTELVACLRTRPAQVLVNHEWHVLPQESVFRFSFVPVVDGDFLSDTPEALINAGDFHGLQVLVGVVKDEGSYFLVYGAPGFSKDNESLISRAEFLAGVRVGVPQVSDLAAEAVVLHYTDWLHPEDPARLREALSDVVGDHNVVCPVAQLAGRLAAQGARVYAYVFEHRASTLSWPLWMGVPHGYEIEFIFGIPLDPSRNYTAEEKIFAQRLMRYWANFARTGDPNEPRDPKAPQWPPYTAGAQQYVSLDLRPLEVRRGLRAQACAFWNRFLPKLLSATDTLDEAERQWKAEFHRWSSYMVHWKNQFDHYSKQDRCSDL
UniProt Q9GZZ6, 25-450 limits assumed: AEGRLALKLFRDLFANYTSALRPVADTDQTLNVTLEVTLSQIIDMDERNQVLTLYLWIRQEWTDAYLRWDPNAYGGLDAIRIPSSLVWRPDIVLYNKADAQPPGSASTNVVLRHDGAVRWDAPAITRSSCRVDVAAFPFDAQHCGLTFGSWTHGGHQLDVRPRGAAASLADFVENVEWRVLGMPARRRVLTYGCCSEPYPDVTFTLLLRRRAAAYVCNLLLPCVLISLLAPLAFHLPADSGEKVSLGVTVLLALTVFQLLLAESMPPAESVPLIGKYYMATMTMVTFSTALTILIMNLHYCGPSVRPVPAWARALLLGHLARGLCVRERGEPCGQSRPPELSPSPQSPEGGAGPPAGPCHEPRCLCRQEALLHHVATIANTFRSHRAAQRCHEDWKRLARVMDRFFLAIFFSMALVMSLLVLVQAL
UniProt Q9UGM1, 26-479 limits assumed: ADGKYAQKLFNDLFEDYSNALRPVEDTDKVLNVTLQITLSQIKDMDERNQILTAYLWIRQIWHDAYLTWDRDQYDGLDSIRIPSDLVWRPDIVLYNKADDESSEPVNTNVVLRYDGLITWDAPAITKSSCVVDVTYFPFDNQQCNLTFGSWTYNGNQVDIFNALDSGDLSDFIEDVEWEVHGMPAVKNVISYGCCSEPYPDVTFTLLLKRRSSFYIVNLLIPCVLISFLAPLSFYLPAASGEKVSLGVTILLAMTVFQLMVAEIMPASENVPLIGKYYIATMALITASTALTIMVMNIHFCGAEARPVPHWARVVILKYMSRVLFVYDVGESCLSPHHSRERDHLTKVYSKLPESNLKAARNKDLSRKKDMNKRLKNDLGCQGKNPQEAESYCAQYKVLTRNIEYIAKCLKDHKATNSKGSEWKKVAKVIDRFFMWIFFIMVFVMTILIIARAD
UniProt P43143, whole entry M241L/F253L/V303I/V320I/I327V/A333T/K339T, looked up: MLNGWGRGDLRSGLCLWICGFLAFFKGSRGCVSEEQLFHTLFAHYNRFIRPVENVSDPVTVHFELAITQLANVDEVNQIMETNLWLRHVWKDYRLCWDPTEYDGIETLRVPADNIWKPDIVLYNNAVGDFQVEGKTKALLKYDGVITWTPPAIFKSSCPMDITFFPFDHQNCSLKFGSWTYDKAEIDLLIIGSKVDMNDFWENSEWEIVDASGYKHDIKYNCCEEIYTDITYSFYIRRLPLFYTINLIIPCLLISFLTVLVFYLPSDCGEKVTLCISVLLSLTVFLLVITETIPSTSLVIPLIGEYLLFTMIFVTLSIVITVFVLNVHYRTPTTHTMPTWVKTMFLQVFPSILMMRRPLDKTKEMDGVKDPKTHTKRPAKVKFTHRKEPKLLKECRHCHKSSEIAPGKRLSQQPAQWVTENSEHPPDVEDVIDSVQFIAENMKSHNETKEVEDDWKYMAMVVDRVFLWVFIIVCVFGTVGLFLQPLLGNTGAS

Compound = CCCC(=O)OC[C@H](NC(=O)/C=C/c1ccccc1)C(=O)NC1CCCCC1; target = rep R3428I 3C-like proteinase; test = enzyme activity, inhibitor, HPLC substrate depletion; setting = pH 4.0; IC50 = 650 µM
Compound = CC(C)C[C@@H]1NC(=O)[C@H](CCC(=O)O)NC(=O)[C@@H]2CCCN2C(=O)[C@H](Cc2c[nH]cn2)NC(=O)[C@H](CCCC(=O)O)NC(=O)[C@H](CC(C)C)NC(=O)[C@H](Cc2c[nH]cn2)NC(=O)[C@@H]2CSSC[C@H](NC(=O)CN)C(=O)N[C@@H](CSSC[C@@H](C(N)=O)NC1=O)C(=O)N[C@@H](CO)C(=O)N[C@@H](Cc1c[nH]cn1)C(=O)N1CCC[C@H]1C(=O)N[C@@H](C)C(=O)N2; target = Neuronal acetylcholine receptor; alpha3/beta2 (Rattus norvegicus, UniProt P04757+P12390); test = ion current, antagonist, two-electrode voltage clamp; system = Xenopus laevis oocytes; setting = together with: 100 µM acetylcholine; IC50 = 0.00301 µM
Compound = CCC(=O)c1cnc2c(=O)[nH]c(N)nc2n1; target = Ricin A chain; test = recovery of translation, inhibitor, in vitro luciferase translation; system = rabbit reticulocyte lysate; IC50 = 700 µM
Compound = CSCC[C@H](NC(=O)[C@H](CC(=O)O)NC(=O)[C@H](CC(=O)O)NC(=O)[C@H](CC(=O)O)NC(=O)[C@H](CO)NC(=O)[C@H](CCC(=O)O)NC(=O)[C@H](CCC(=O)O)NC(=O)[C@@H](N)CO)C(=O)NCC(=O)N[C@@H](Cc1ccccc1)C(=O)NCC(=O)N[C@@H](CC(C)C)C(=O)N[C@@H](Cc1ccccc1)C(=O)N[C@@H](CC(=O)O)C(=O)O; target = Shiga-like toxin 2 subunit A A1 fragment; test = ribosome depurination; system = yeast ribosomes; setting = pH 7.4; IC50 = 29 ± 5 µM
Compound = C=CCc1cc(O)c([C@@H]2C=C(C)CC[C@H]2C(=C)C)c(O)c1; target = OPRM1 (Homo sapiens, UniProt P35372); test = cAMP level, antagonist; system = HEK293 expressing human µ-opioid receptor; setting = together with: fentanyl 500 pM (EC95); IC50 = 1.4 µM
Compound = CSCC[C@H](N)C(=O)NCC(=O)N[C@@H](Cc1ccccc1)C(=O)NCC(=O)N[C@@H](CC(C)C)C(=O)N[C@@H](Cc1ccccc1)C(=O)N[C@@H](CC(=O)O)C(=O)O; target = Shiga-like toxin 2 subunit A A1 fragment; test = ribosome depurination; system = yeast ribosomes; setting = pH 7.4; IC50 = 60 ± 6 µM
Compound = O=C(/C=C/c1ccccc1)N[C@@H](c1ccccc1)[C@@H](OC(=O)CCc1ccccc1)C(=O)NC1CCCCC1; target = Replicase polyprotein 1a R3428I 3C-like proteinase; test = enzyme activity, inhibitor; setting = pH 4.0; IC50 = 65 µM
Compound = O=C(/C=C/c1ccccc1)N[C@@H](COC(=O)c1ccccc1)C(=O)NC1CCCCC1; target = rep R3428I 3C-like proteinase; test = enzyme activity, inhibitor, HPLC substrate depletion; setting = pH 4.0; IC50 = 125 µM
Compound = CC(C)C[C@H](NC(=O)[C@@H](NC(=O)COc1ccc(N(C)C)cc1)C(C)C)C(=O)N[C@@H](C[C@@H]1CCNC1=O)C(=O)c1nc2ccccc2s1; target = rep R3428I 3C-like proteinase; test = enzyme activity, inhibitor, HPLC; setting = 60 min, 37 °C, together with: substrate 111 µM; IC50 = 0.65 µM
Compound = O=C(c1ccc2c(c1)OCO2)C1CCCN(C2CCN(CCc3ccccc3)CC2)C1 (stereo not shown); target = Botulinum neurotoxin type A light chain; test = inhibitor, FRET, SNAPtide substrate; setting = no reducing agent; IC50 = 0.5 ± 0.2 µM
Compound = COc1cccc(OCC(=O)N[C@H](C(=O)N[C@@H](CC(C)C)C(=O)N[C@@H](C[C@@H]2CCNC2=O)C(=O)c2nc3ccccc3s2)C(C)C)c1; target = rep R3428I 3C-like proteinase; test = enzyme activity, inhibitor, HPLC; setting = 60 min, 37 °C, together with: substrate 111 µM; IC50 = 0.75 µM
Compound = COc1ccc([C@@H]2CC(=O)c3c(O)cc(O)cc3O2)cc1O; target = Replicase polyprotein 1ab, 3C-like proteinase (rep, Severe acute respiratory syndrome-related coronavirus, UniProt P0C6X7); test = 3CLpro cleavage, inhibitor, ELISA; setting = 3 h; IC50 = 60 µM and 59.9 µM
Compound = COc1cc(/C=C/C(=O)O[C@@H](C(=O)NC2CCCCC2)[C@@H](NC(=O)/C=C/c2ccccc2)c2ccccc2)cc(OC)c1OC; target = Replicase polyprotein 1a R3428I 3C-like proteinase; test = enzyme activity, inhibitor; setting = pH 4.0; IC50 = 250 µM
Compound = CC[C@H](C)[C@@H]1NC(=O)[C@H](CCC(=O)O)NC(=O)[C@@H]2CCCN2C(=O)[C@H](Cc2c[nH]cn2)NC(=O)[C@H](CCCCC(=O)O)NC(=O)[C@H](CC(C)C)NC(=O)[C@H](Cc2c[nH]cn2)NC(=O)[C@@H]2CSSC[C@H](NC(=O)CN)C(=O)N[C@@H](CSSC[C@@H](C(N)=O)NC1=O)C(=O)N[C@@H](CO)C(=O)N[C@@H](Cc1c[nH]cn1)C(=O)N1CCC[C@H]1C(=O)N[C@@H](C)C(=O)N2; target = Neuronal acetylcholine receptor; alpha3/beta4 (Rattus norvegicus, UniProt P04757+P12392); test = ACh-evoked current, antagonist, two-electrode voltage clamp; system = Xenopus laevis oocytes; setting = together with: ACh 300 µM; IC50 = 0.341 µM
Compound = Cc1cccc([N+](=O)[O-])c1C(=O)OC[C@H](NC(=O)/C=C/c1ccccc1)C(=O)NC1CCCCC1; target = rep R3428I 3C-like proteinase; test = enzyme activity, inhibitor, HPLC substrate depletion; setting = pH 4.0; IC50 = 65 µM
Compound = CNC(=O)ON=C(C)SC; target = Acetylcholinesterase (Cavia porcellus, UniProt D3YE96); test = Ellman; IC50 = 15 µM
Compound = NC(=O)c1cccc2c1-c1ccccc1C2=O; target = Ricin A chain; test = ribosome depurination, inhibitor; system = yeast ribosomes; setting = pH 7.4; IC50 = > 400 µM
Compound = O=C(/C=C/c1ccccc1)N[C@@H](COC(=O)c1c(Cl)cc(Cl)cc1Cl)C(=O)NC1CCCCC1; target = rep R3428I 3C-like proteinase; test = enzyme activity, inhibitor, HPLC substrate depletion; setting = pH 4.0; IC50 = 550 µM
Compound = O=CN1CC[C@]23c4c5ccc(O)c4O[C@H]2[C@@H](O)C=C[C@H]3[C@H]1C5; target = Oprd1 (Mus musculus, UniProt P32300); system = mouse vas deferens; IC50 = > 10 µM
Compound = O=C(/C=C/c1ccccc1)N[C@H](COC(=O)c1cccnc1)C(=O)NC1CCCCC1; target = rep R3428I 3C-like proteinase; test = enzyme activity, inhibitor, HPLC substrate depletion; setting = pH 4.0; IC50 = 240 µM
Compound = COc1cc(CNC(=O)c2cnc3c(=O)[nH]c(N)nc3n2)cc(OC)c1OC; target = Ricin A chain; test = recovery of translation, inhibitor, in vitro luciferase translation; system = rabbit reticulocyte lysate; IC50 = no inhibition
Compound = CC(C)C[C@H](NC(=O)[C@@H](NC(=O)COc1ccc([N+](=O)[O-])cc1)C(C)C)C(=O)N[C@@H](C[C@@H]1CCNC1=O)C(=O)c1nc2ccccc2s1; target = rep R3428I 3C-like proteinase; test = enzyme activity, inhibitor, HPLC; setting = 60 min, 37 °C, together with: substrate 111 µM; IC50 = 3.4 µM
Compound = COc1ccc(/C=C/C(=O)N[C@@H](COC(=O)c2ccccc2)C(=O)NC2CCCCC2)cc1OC; target = rep R3428I 3C-like proteinase; test = enzyme activity, inhibitor, HPLC substrate depletion; setting = pH 4.0; IC50 = 154 µM
Compound = Cc1ccc(C(=O)Nc2ccc(S(=O)(=O)O)c3cc(S(=O)(=O)O)cc(S(=O)(=O)O)c23)cc1NC(=O)c1cccc(NC(=O)Nc2cccc(C(=O)Nc3cc(C(=O)Nc4ccc(S(=O)(=O)O)c5cc(S(=O)(=O)O)cc(S(=O)(=O)O)c45)ccc3C)c2)c1; target = RNA-directed RNA polymerase L, with VP35 (Zaire ebolavirus, UniProt X5H5B6); test = RNA synthesis, inhibitor, primer extension; setting = 1 h, pH 8.0, 30 °C, together with: 1 mM CTP, UTP, ATP; IC50 = 11.2 µM
Compound = CC(C)OP(=S)(OC(C)C)SCCNS(=O)(=O)c1ccccc1; target = ACHE (Homo sapiens, UniProt P22303); test = enzyme activity, inhibitor, fluorescence; setting = no microsomes; IC50 = 52.6 ± 3.42 µM
Compound = CC(=O)Nc1ccc(/C=N/Nc2ccc(C(=O)c3c(C)cc4ccccn34)cc2[N+](=O)[O-])cc1; target = Botulinum neurotoxin type A light chain; test = inhibitor, FRET, SNAPtide substrate; setting = no reducing agent; IC50 = 6 ± 6 µM
Compound = O=C(/C=C/c1ccccc1)N[C@H](COC(=O)/C=C/c1ccccc1)C(=O)NC1CCCCC1; target = rep R3428I 3C-like proteinase; test = enzyme activity, inhibitor, HPLC substrate depletion; setting = pH 4.0; IC50 = 340 µM
Compound = CC(C)C[C@H](NC(=O)[C@@H](NC(=O)Oc1ccccc1)C(C)C)C(=O)N[C@@H](Cc1c[nH]cn1)C(=O)c1nccs1; target = rep R3428I 3C-like proteinase; test = enzyme activity, inhibitor, HPLC; setting = 60 min, 37 °C, together with: substrate 111 µM; IC50 = > 1600 µM
Compound = CC(=O)OC[C@H](NC(=O)/C=C/c1ccccc1)C(=O)NC1CCCCC1; target = rep R3428I 3C-like proteinase; test = enzyme activity, inhibitor, HPLC substrate depletion; setting = pH 4.0; IC50 = 400 µM
Compound = C[C@@H]1NC(=O)[C@H](CCCNC(=N)N)NC(=O)[C@H](CCCNC(=N)N)NC(=O)[C@H](CCCNC(=N)N)NC(=O)[C@H](CO)NC(=O)[C@@H]2CSSC[C@H](NC(=O)CN)C(=O)N[C@@H](CSSC[C@@H](C(N)=O)NC(=O)[C@H](CO)NC(=O)[C@H](CCCNC(=N)N)NC1=O)C(=O)N[C@@H](CO)C(=O)N[C@@H](Cc1c[nH]cn1)C(=O)N1CCC[C@H]1C(=O)N[C@@H](C)C(=O)N2; target = Neuronal acetylcholine receptor; alpha9/alpha10 (Homo sapiens, UniProt Q9GZZ6+Q9UGM1); test = ion current, antagonist, two-electrode voltage clamp; system = Xenopus oocytes; setting = holding -70 mV, together with: 100 µM acetylcholine; IC50 = 0.0981 µM
Compound = CC(C)C[C@@H]1NC(=O)[C@H](CCC(=O)O)NC(=O)[C@@H]2CCCN2C(=O)[C@H](Cc2c[nH]cn2)NC(=O)[C@H](CC(N)=O)NC(=O)[C@H](C(C)C)NC(=O)[C@H](CC(N)=O)NC(=O)[C@@H]2CSSC[C@H](NC(=O)CN)C(=O)N[C@@H](CSSC[C@@H](C(N)=O)NC1=O)C(=O)N[C@@H](CO)C(=O)N[C@@H](Cc1c[nH]cn1)C(=O)N1CCC[C@H]1C(=O)N[C@@H](C)C(=O)N2; target = Chrna3/Chrnb2/Chrna6, with beta3 subunit (Rattus norvegicus, UniProt P04757+P12390+P43143); test = ion current, antagonist, two-electrode voltage clamp; system = Xenopus laevis oocytes; setting = together with: 100 µM acetylcholine; IC50 = 0.016 µM
Compound = Nc1nc2nc(C(=O)NCc3ccco3)cnc2c(=O)[nH]1; target = Ricin A chain; test = recovery of translation, inhibitor, in vitro luciferase translation; system = rabbit reticulocyte lysate; IC50 = 380 µM
Compound = O=C(O)c1cc(-c2ccc(-c3c(-c4ccc5c(c4)OCO5)noc3-c3ccsc3)cc2)nc2ccccc12; target = Botulinum neurotoxin type A light chain; test = inhibitor, FRET, YFP-SNAP25-CFP substrate; setting = 1.25 mM DTT; IC50 = 56 µM
Compound = CC(C)C[C@H](NC(=O)[C@@H](NC(=O)COc1cccnc1)C(C)C)C(=O)N[C@@H](C[C@@H]1CCNC1=O)C(=O)c1nc2ccccc2s1; target = rep R3428I 3C-like proteinase; test = enzyme activity, inhibitor, HPLC; setting = 60 min, 37 °C, together with: substrate 111 µM; IC50 = 2.9 µM

Repeated from above:
Compound = C=CCc1cc(O)c([C@@H]2C=C(C)CC[C@H]2C(=C)C)c(O)c1; target = OPRM1 (Homo sapiens, UniProt P35372); test = cAMP level, antagonist; system = HEK293 expressing human µ-opioid receptor; setting = together with: fentanyl 500 pM (EC95); IC50 = 1.4 µM
Compound = NC(=O)c1cccc2c1-c1ccccc1C2=O; target = Ricin A chain; test = ribosome depurination, inhibitor; system = yeast ribosomes; setting = pH 7.4; IC50 = > 400 µM
Compound = COc1cc(CNC(=O)c2cnc3c(=O)[nH]c(N)nc3n2)cc(OC)c1OC; target = Ricin A chain; test = recovery of translation, inhibitor, in vitro luciferase translation; system = rabbit reticulocyte lysate; IC50 = no inhibition
